Published values gathered from unrelated publications.
± marks the error that the study gave.

Molecule	cell line	test	test system	conditions	how to read	quantity	value
Cn1c(=O)c(F)c(Nc2ccc(I)cc2F)c2c(=O)n(C[C@@H](O)CO)cnc21	NIH3T3 in PANC/NIH microtissues	fibroblast toxicity	–	168 h, chronic toxicity, unit not given	reference: AC50 ATP over AC50 NanoLUC, day 7	therapeutic window	1.8
COCn1c(-c2ccccc2)cc2ccccc21	HEK293 NF-κB luciferase reporter	reporter gene, measured: NF-κB	–	50 µM, 6 h, added: TNFα	–	inhibition	21.5 ± 3.3%
CC[C@@]1(O)C[C@H](O[C@H]2C[C@H](N(C)C)[C@H](O[C@H]3C[C@H](O)[C@H](O[C@H]4CCC(=O)[C@H](C)O4)[C@H](C)O3)[C@H](C)O2)c2c(cc3c(c2O)C(=O)c2c(O)cccc2C3=O)[C@H]1C(=O)OC	RS4-11	–	–	72 h, added: cytotoxic drug	below 1 means synergy	combination index	0.91 ± 0.03
Ac-ARGCA-NH2 (N-acetyl, C-amide)	GM7373 bovine endothelial	cell proliferation, inhibitor	peptide	24 h, added: 0.55 nM FGF2, 0.4% FCS	–	ID50	500 µM
c1cncc(-c2cc3ccccc3[nH]2)c1	HEK293 NF-κB luciferase reporter	reporter gene, measured: NF-κB	–	50 µM, 6 h, added: TNFα	–	inhibition	12.3 ± 4.4%
Ac-ARPCG-NH2 (N-acetyl, C-amide)	GM7373 bovine endothelial	cell proliferation, inhibitor	peptide	24 h, added: 0.55 nM FGF2, 0.4% FCS	–	ID50	> 1000 µM
CCn1c(C)cs/c1=N/N=C(\C)c1ccccn1	Vero	cell growth or viability, SRB	–	100 µg/mL, 48 h	–	inhibition	56.4%
CS(=O)(=O)CCNCc1ccc(-c2ccc3ncnc(Nc4ccc(OCc5cccc(F)c5)c(Cl)c4)c3c2)o1	ex vivo 231-BR-HER2 cells	MTT	–	8 or 10 µM, 72 h	reference: lines from vehicle-treated mice	viability	no effect
CC1=C(CC(=O)Oc2ccc(OC(=O)CCCO[N+](=O)[O-])c(C(=O)Oc3ccc(-c4cc(=S)ss4)cc3)c2)c2cc(F)ccc2/C1=C\c1ccc([S+](C)[O-])cc1 (stereo not shown)	HPDE and BxPC-3	cell growth	–	24 h	reference: HPDE over BxPC-3	IC50 ratio	> 200 fold
C=C(C[C@H](N)C(=O)O)C(=O)NC1CC1	MCF7 cells	cell growth inhibition	–	72 h	reference: vehicle	lowest significantly active concentration	10 µM
CCN1C(=O)C(C(C)=O)S/C1=N/N=C(\C)c1ccccn1 (stereo not shown)	Vero	cell growth or viability, SRB	–	100 µg/mL, 48 h	–	inhibition	50.3%
Cc1ccc(C(=O)NCc2ccsc2)cc1C#Cc1cn(C(C)C)c2ncnc(N)c12	U-118-MG	cell growth or viability	–	–	–	GI50	> 1000 nM
CC1(C)CC(=O)C2=C(C1)Nc1cc(Br)ccc1NC2c1ccc(N2CCCC2)cc1 (stereo not shown)	H4	cytoprotection	–	added: thapsigargin 7.5 µM	–	EC50	> 50 µM
C[C@H](O)c1cccc(NC(=O)c2nn(Cc3ccc(F)cc3)c3c2CN(C(=O)c2ccc[nH]2)C[C@H]3C)c1	IDH1 R132G mutant AML cells	–	–	concentration not given, IDH1/2 mutant hypermethylation signature	–	hypomethylated signature CpGs	~70%
CN(C)c1ccc(C2Nc3ccc(Br)cc3NC3=C2C(=O)CC(C)(C)C3)cc1 (stereo not shown)	H4	cytoprotection	–	added: thapsigargin 7.5 µM	–	EC50	~13 µM
CC(C)C[C@H](NC(=O)CNC(=O)c1cc(Cl)ccc1Cl)B(O)O	SK-N-SH	annexin V flow cytometry	–	100 nM, 24 h, conditioned media from pretreated astrocytes, added: inflammatory stimulus	reference: DMSO	neuronal apoptosis	no effect
COc1ccc(C(=O)Nc2ccc(N3CCN(c4ccc(OC)cc4)CC3)cc2C(=O)O)cc1	CHO-K1	cell growth	–	concentration not given, added: DFMO at IC50 + spermidine 1 µM	–	activity	inactive
C/C(=N\N=c1/[nH]c(C)cs1)c1ccccn1	Vero	cell growth or viability, SRB	–	100 µg/mL, 48 h	–	inhibition	65.5%
C#CCn1c(-c2ccccc2)cc2ccccc21	HEK293 NF-κB luciferase reporter	reporter gene, measured: NF-κB	–	50 µM, 6 h, added: TNFα	–	inhibition	46.2 ± 2.1%
Ac-ARACA-NH2 (N-acetyl, C-amide)	GM7373 bovine endothelial	cell proliferation, inhibitor	peptide	24 h, added: 0.55 nM FGF2, 0.4% FCS	–	ID50	> 1000 µM
Fc1ccc(-c2cc3ccccc3[nH]2)cc1	HEK293	cell growth or viability	–	50 µM	–	viability	84.3%
Nc1nc(F)nc2c1ncn2[C@@H]1O[C@H](CO)[C@@H](O)[C@@H]1O	RS4-11	–	–	72 h, added: cytotoxic drug	below 1 means synergy	combination index	0.85 ± 0.11
O=c1[nH]cc(F)c(=O)[nH]1	mES-D3 cell	cardiomyocyte differentiation, RT-PCR, measured: MHC	–	240 h	–	ID50	0.037 ± 0.006 µg/mL

Molecule	cell line	test	test system	conditions	how to read	quantity	value
RXRRXRRXRRXRXB (PMO conjugate)	pLuc705 cells	flow cytometry	peptide	2 µM, 24 h, 10% serum, unit not given	higher = more uptake	cellular uptake	92
Clc1ccc(-c2cc3ccccc3[nH]2)cc1Cl	HEK293 NF-κB luciferase reporter	reporter gene, measured: NF-κB	–	50 µM, 6 h, added: TNFα	–	inhibition	68.2 ± 6.3%
CC(=O)N[C@@H](CS)C(=O)O	NCI-H929	annexin V flow cytometry	–	10 mM, 30 min pretreatment, added: HYD1	–	protection from cell death	32%
O=C(/C=C/N1C[C@H]2C[C@@H]1CN2c1ccccn1)c1ccccc1O	C2C12 myoblasts	myoblast differentiation	–	–	–	effective concentration	1 µM
Brc1ccc(-c2cc3ccccc3[nH]2)cc1	HEK293	cell growth or viability	–	50 µM	–	viability	86.7%
LRRFSTMPFMFCNINNVCNF	HUVEC	cell proliferation, WST-1	peptide	100 µM, 72 h	reference: vehicle	inhibition	67.5 ± 2.58%
CSTSCR	bovine aortic endothelial cells	–	peptide	2 µg coated per well, 30 to 60 min	reference: thrombospondin-coated wells	adherent cells	65%
Ac-ARPCA-NH2 (N-acetyl, C-amide)	GM7373 bovine endothelial	cell proliferation, inhibitor	peptide	24 h, added: 0.55 nM FGF2, 0.4% FCS	–	ID50	15 µM
O=C(/C=C/c1cccs1)Nc1scc(-c2ccccc2)c1C(=O)O	normal human fibroblasts	measured: MBNL1-independent exons	–	up to 500 µM, 48 h	–	alternative splicing	no effect
Ac-ARPVA-NH2 (N-acetyl, C-amide)	GM7373 bovine endothelial	cell proliferation, inhibitor	peptide	24 h, added: 0.55 nM FGF2, 0.4% FCS	–	ID50	> 1000 µM
Cc1cc(NC(=O)c2cccc(NC(=O)/C=C/CN(C)C)c2)ccc1Nc1nccc(-c2cccnc2)n1	HEK-293T expressing GFP-FMN1	JNK pathway, inhibitor, LC-MS/MS	–	5 µM, 1 h pretreatment, added: anisomycin 10 µg/mL for 1 h	–	phosphorylation of FMN1 Ser-Pro sites	inhibited
c1ccc(Cn2c(-c3ccccc3)cc3ccccc32)cc1	HEK293	cell growth or viability	–	50 µM	–	viability	96.3%
NC(=O)NCCC[C@@H](NS(=O)(=O)c1ccc(OCc2cc(Br)cc(Br)c2)cc1)C(=O)NO	L-428	measured: soluble NKG2D ligands	–	24 h	–	lowest concentration inhibiting shedding	5 to 10 µM
TCVCGS	bovine aortic endothelial cells	–	peptide	2 µg coated per well, 30 to 60 min	reference: thrombospondin-coated wells	adherent cells	6%
CCN(CC)c1ccc(C2Nc3ccc(Cl)cc3NC3=C2C(=O)CC(C)(C)C3)cc1 (stereo not shown)	H4	cytoprotection	–	added: thapsigargin 7.5 µM	–	EC50	> 50 µM
exonuclease 1 (human)	NIH3T3	confocal microscopy, measured: YFP-tagged compound	–	concentration not given, PCNA replication foci, added: co-transfected CFP-PCNA	–	cells with early S-phase foci	28%
COc1cccc2c1C(=O)c1c(O)c3c(c(O)c1C2=O)C[C@@](O)(C(=O)CO)C[C@@H]3O[C@H]1C[C@H](N)[C@H](O)[C@H](C)O1	KB-V1 multidrug-resistant	flow cytometry	–	5 µM, 2 h plus 2 h washout	–	drug effluxed	~80%
Fc1cc(F)cc(-c2cc3ccccc3[nH]2)c1	HEK293 NF-κB luciferase reporter	reporter gene, measured: NF-κB	–	50 µM, 6 h, added: TNFα	–	inhibition	62.3 ± 8.3%
LRRFSTMPFAFININNVINF	HUVEC	cell proliferation, WST-1	peptide	100 µM, 72 h	reference: vehicle	inhibition	46.6 ± 4.23%
C#C[C@@]1(O)[C@@H](CO)O[C@@H](n2cc(I)c3c(N)ncnc32)[C@@H]1O	CCRF-CEM	cell growth or viability, SRB	–	48 h	–	GI50	272 nM
CN(C)c1ccc(C2Nc3ccc(C(=O)c4ccccc4)cc3NC3=C2C(=O)CC(C)(C)C3)cc1 (stereo not shown)	H4	cytoprotection	–	added: thapsigargin 7.5 µM	–	EC50	15.1 ± 0.67 µM
COc1ccc(C[C@]2(O)COc3cc(O)cc(O)c3C2=O)cc1	Y79	cell growth or viability, resazurin	–	48 h	–	GI50	> 100000 nM
Nc1ncnc2c1nc(Sc1ccc(Cl)cc1)n2[C@@H]1O[C@@H]2COP(=O)(O)O[C@H]2[C@H]1O	CHO-K1	fluorescein-WGA ratio imaging	–	concentration not given, 37 °C, medium pH 7.4	–	cell surface pH	6.9

Some of these lines once more:
Molecule	cell line	test	test system	conditions	how to read	quantity	value
RXRRXRRXRRXRXB (PMO conjugate)	pLuc705 cells	flow cytometry	peptide	2 µM, 24 h, 10% serum, unit not given	higher = more uptake	cellular uptake	92
Ac-ARPCA-NH2 (N-acetyl, C-amide)	GM7373 bovine endothelial	cell proliferation, inhibitor	peptide	24 h, added: 0.55 nM FGF2, 0.4% FCS	–	ID50	15 µM
CC1(C)CC(=O)C2=C(C1)Nc1cc(Br)ccc1NC2c1ccc(N2CCCC2)cc1 (stereo not shown)	H4	cytoprotection	–	added: thapsigargin 7.5 µM	–	EC50	> 50 µM
Brc1ccc(-c2cc3ccccc3[nH]2)cc1	HEK293	cell growth or viability	–	50 µM	–	viability	86.7%
